Measurements from different studies.
Each line is one published result; not all experiments were run side by side.
CDK16: Cyclin-dependent kinase 16 (CDK16, Homo sapiens, UniProt Q00536)
CDK16 with cyclin Y: Cyclin-dependent kinase 16, with cyclin Y (CDK16, Homo sapiens, UniProt Q00536)

Structure (SMILES) | target | assay | system | conditions | scale | measurement | result
CNC(=O)C1CCN(c2cc(C)c(F)cc2NC(=O)c2ccc(-c3cc(O)ccc3C)c(C)c2)CC1 | CDK16 | binding, competition with immobilised ligand |  | 1 µM |  | remaining binding | 75%
C=CC(=O)N1CCc2ccc(-n3c(=O)ccc4cnc5ccc(-c6cnn(C)c6)cc5c43)cc21 | CDK16 | KINOMEscan |  | 1 µM | reference: DMSO control | remaining binding | 92%
CN1C[C@@H](c2c[nH]c3cc(Br)ccc23)NC[C@@H]1c1c[nH]c2cc(Br)ccc12 | CDK16 with cyclin Y | enzyme activity, inhibitor |  | 10 µM |  | remaining activity | 96%
C=CC(=O)N1CCCC(n2c(=O)c3ncccc3n(Cc3ccc(Oc4ccccc4)cc3)c2=O)C1 (stereo not shown) | CDK16 | cell-free assay, competition with immobilised ligand |  | 1 µM |  | remaining binding | 67%
COc1cc(Nc2nccc(-c3cnn4nc(OC)ccc34)n2)cc(C(F)(F)F)c1 | CDK16 | binding, competition with immobilised ligand |  | 1 µM |  | remaining binding | 100%
CC(=O)N1c2ccc(-c3ccc(CNC(=O)c4cn5cc(-c6cnc(N)nc6)nc(N6CCOCC6)c5n4)cc3)cc2CC[C@@H]1C | CDK16 | KINOMEscan |  | 10 µM |  | remaining binding | 79%
CN1CCN(Cc2ccc(-c3ccc(CO[C@H]4CCC[C@@H]4NC(=O)c4cc(-c5cnn(C)c5)cnc4N)cc3)cc2)CC1 | CDK16 with cyclin Y | enzyme activity, inhibitor |  | 0.1 µM |  | inhibition | -2%
C=CC(=O)Nc1cc(-c2nn(C3CCN(CCNC(=O)[C@H](C)CCC45CC6CC(CC(C6)C4)C5)CC3)c3ncnc(N)c23)ccc1Oc1ccccc1 | CDK16 | inhibitor, KiNativ profiling | biochemical | 2 µM |  | inhibition | 10.7%
Nc1ncc2c(n1)-c1c([nH]c3ccc(C4=CCOCC4)cc13)CCC2 | CDK16 | binding, competition with immobilised ligand |  | 1 µM |  | remaining binding | 77%
CC(C)=CC1OC(C)(C)C2C=C3C(=O)C(Cl)=CC(O)C3C3C(O)C4OC4C(=O)C132 (stereo not shown) | CDK16 | cell-free assay, competition with immobilised ligand |  | 10 µM |  | remaining binding | 70%
C=CC(=O)N1Cc2nc(-c3cc(-c4cc(Cl)cnc4Cl)c(F)cc3F)n(-c3ccncn3)c2C1 | CDK16 with cyclin Y | cell-free assay, inhibitor |  | 1 µM |  | inhibition | 0.2%
CN1CCN(Cc2ccc(NC(=O)c3cccc(C#Cc4cnc(N)c5ncccc45)c3)cc2C(F)(F)F)CC1 | CDK16 | cell-free assay, competition with immobilised ligand |  | 0.5 µM |  | remaining binding | 62%
CNS(=O)(=O)Nc1nccc(Cc2c(C)c3ccc(Oc4ncccc4F)cc3oc2=O)c1F | CDK16 | binding, competition with immobilised ligand |  | 10 µM |  | remaining binding | 100%
